Results gathered from unrelated publications.
Each numbered part is a random draw from the data of one study; scales do not carry over between parts.

Series 1
Target: Interferon regulatory factor 7, full length, phosphomimetic (IRF7, Homo sapiens, UniProt Q92985, residues 1-503, S471D/S472D/S475D/S476D/S477D/S483D/S484D/S487D)
Sequence of UniProt Q92985 (whole entry, unmodified, looked up): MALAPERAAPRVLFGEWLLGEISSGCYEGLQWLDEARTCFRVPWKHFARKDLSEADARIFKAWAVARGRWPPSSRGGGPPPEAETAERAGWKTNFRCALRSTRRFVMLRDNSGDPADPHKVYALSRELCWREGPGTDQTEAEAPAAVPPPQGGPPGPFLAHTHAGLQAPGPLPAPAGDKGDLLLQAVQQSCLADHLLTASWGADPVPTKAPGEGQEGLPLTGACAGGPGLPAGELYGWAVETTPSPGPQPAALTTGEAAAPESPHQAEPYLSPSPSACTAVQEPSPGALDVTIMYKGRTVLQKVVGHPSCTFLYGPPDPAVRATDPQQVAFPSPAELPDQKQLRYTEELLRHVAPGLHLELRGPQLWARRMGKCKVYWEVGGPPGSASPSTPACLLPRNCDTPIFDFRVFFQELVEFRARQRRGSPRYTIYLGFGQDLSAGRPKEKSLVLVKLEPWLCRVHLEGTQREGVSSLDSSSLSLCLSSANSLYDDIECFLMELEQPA
Method: protein-binding microarray
Molecule type: double-stranded DNA, one strand shown
Sample: in vitro
Concentration: 2200 nM top
Setting: 60-bp whole probe
With: salmon DNA 0.4 mg/ml
Baseline: random background probes
Reading: higher = stronger binding
All sequences stand within: GCCTAGCAC … GTCTTGATTCGCTTGACGCTGCTG
Sequence	fitted relative affinity
TTGGGACTGCTACTGCTTTAGTGCTAG	0.079 z-score
GAAGGTATCGGGACTGGGGACGTGCTA	-0.588 z-score
GGTCCTCTGGGCTGTTTGGCCGTGCTA	-0.968 z-score
GACGGACTGGGTATGGGGACGTGCTAG	-0.727 z-score
TTAGATATCGGGAGTGGATTAGTGCTA	-0.235 z-score

Series 2
Target: Sal-like protein 4, full length isoform A (SALL4, Homo sapiens, UniProt Q9UJQ4, residues 1-1053)
Sequence of UniProt Q9UJQ4 (whole entry, looked up): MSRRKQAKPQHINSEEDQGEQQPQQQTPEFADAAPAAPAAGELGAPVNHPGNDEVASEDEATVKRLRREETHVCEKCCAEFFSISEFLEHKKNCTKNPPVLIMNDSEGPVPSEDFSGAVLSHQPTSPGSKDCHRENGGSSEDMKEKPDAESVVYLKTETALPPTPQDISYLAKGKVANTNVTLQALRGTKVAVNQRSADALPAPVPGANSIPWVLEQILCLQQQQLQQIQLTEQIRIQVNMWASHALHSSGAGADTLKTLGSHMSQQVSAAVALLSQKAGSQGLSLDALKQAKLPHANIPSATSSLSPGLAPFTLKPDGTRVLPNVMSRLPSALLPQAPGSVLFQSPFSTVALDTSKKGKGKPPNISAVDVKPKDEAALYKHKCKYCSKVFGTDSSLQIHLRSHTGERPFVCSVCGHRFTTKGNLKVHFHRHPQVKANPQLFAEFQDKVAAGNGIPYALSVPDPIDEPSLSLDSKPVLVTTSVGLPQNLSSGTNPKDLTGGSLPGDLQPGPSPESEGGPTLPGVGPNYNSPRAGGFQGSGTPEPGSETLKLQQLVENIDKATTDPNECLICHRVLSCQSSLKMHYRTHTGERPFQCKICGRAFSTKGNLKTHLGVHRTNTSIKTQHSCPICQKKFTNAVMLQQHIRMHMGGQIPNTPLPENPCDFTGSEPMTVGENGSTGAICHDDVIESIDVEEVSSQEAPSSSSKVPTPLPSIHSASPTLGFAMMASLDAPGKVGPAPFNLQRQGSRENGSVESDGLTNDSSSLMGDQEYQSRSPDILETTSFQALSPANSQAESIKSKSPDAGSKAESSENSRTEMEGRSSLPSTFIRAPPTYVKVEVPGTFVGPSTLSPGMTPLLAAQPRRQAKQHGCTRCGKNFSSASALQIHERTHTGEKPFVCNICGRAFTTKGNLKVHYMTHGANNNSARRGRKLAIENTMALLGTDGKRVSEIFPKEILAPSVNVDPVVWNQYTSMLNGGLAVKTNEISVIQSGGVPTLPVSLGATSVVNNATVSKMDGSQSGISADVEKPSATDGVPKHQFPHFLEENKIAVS
Method: universal PBM
Molecule type: double-stranded DNA, one strand shown
Sample: in vitro
Concentration: 600 nM
Setting: 8-mer, flanks averaged, mean of replicates
Reading: higher = stronger binding
Sequence	E-score
ATGTATTC	0.174
ACAACCTC	-0.0466
GAGCTAAA	-0.0469
ATTGACGC	0.0991
AGTTCGCC	-0.013

Series 3
Target: RNA binding protein fox-1 homolog 2, RRM domain, GST-SBP tag (RBFOX2, Homo sapiens, UniProt O43251-10, residues 100-194)
Method: RNA Bind-n-Seq
Molecule type: RNA
Sample: in vitro
Concentration: 365 nM
Setting: natural RNA segment, single round, ends assumed
Baseline: no-protein control
Reading: higher = stronger binding
All sequences stand within: GGGAGUUCUACAGUCCGACGAUC … UGGAAUUCUCGGGUGCCAA
Residues (chain): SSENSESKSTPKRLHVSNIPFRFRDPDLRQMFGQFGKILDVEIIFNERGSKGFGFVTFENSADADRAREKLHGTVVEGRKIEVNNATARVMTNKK
Sequence	RBNS enrichment (R)
ACACCUAAAUUUAAUUUAUUUUAUUAAAAUAACAUAAUUGAGGGACCAUCAGAUAACUGUAUUUUGUCAGGUGCAAUAAAAACAAAAUUAAAACCCAAAUCAUCAAGAAA	0.365
GAAUGCCAGAGUUAGCCUCCCAGGCUUGCGGGUGGACAUGCCUGCUCCCUGCCAGCCUCCAGUGGCCUGGCCAGGCCCUCCCGAGCCUGUCUGCCCUCCCCAGGGGUGGA	7.74
UACUACUAAUUUGCCUAUUGCCUAUCGCCUCUCUCUCCCAUUCAGACAAGUGUUUGUAGACUCUGAAGCCUAAUGUUACUCAUGACGUUUGCCUCAUUGCUUUGCUUAUU	1.13
UUAAGCCGUGGAAAAUGUUCUUGAUCAUUUGCAGUUAAGGACUUUAAAUAAAUCAAAUGUUAACAAAGAGCAUUUCUGUUAUUUUUUUUCACUUAACUAAAUCCGAAGUG	0.315
CUAAGACUGAUCUGAGAGCCAUUGGGCCAUCAAGCCUUUAUAUAUCUGCUUCUAAAAUUGCCCCACCUGCUCUAGAUGGAUCUUUGGGCCUUUCCUCAGUGUUCAUGCAA	0.854
CACAACUUGCACAGCAGGCCCACCCUGCAAGGACCCCAUCAGUGUGAGCAUCGCAGUAGCCAGCCACAGAAGCUAACAAGCCUUGAACCACUCUGGUGGCCACACAGCGC	0.527
CAAUAAGCUCGUGUCGUCUGUCAGAGCCCCUCUCUCAACUCUGUGACCUGAUAAUGUUUCUAAGAAAAAGAAAAAAAGGACAAAAGGGAGGGAACCACUACCAAAAAAAA	0.546

Single results of other studies
Substance	target	assay	system	setting	scale	measurement	result
PhoQ, residues 284 288 289 292 302 303 ALVSVA	PhoP, residues 12 14 15 18 19 SGWQI (Escherichia coli, UniProt P23836)	Sort-seq, measured: YFP reporter	E. coli	PhoQ-PhoP variant library, with: 10 µM Mg2+	baseline: high Mg2+ state, higher = stronger signaling	fold induction	1.8

For quick reference, copied from above (series 2):
Sequence	E-score
ACAACCTC	-0.0466
ATTGACGC	0.0991
GAGCTAAA	-0.0469
